Measurements gathered from unrelated publications.
Numbered parts are unrelated; each lists some results of a single study.

Series 1
Target: Histone acetyltransferase KAT6A, winged helix 2, GST fusion (KAT6A, Homo sapiens, UniProt Q92794, residues 85-181)
Technique: protein binding microarray
Form: double-stranded DNA, one strand shown
Medium: in vitro
Concentration: not given
Setting: 8-mer, flanks averaged, mean of 2 arrays, mostly near background
Reference: not given
Reading: higher = stronger binding
Construct (chain): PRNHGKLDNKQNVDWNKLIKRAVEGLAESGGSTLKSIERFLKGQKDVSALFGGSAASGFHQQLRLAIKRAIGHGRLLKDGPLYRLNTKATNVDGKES
Oligonucleotide	E-score
CGCAAACA	0.0442
CAGAATAG	-0.0777
ACGGTACA	-0.0648
TATACCAA	-0.0614
ACGTGGCT	-0.129
ACATCCCG	-0.0857
GTTCTGAA	-0.000875
CTCACCTC	0.0374
ATTCCAAT	0.00874
GTCGTGGA	0.00438
CGAATTCG	0.156
GCACAGCA	0.207
GTTTCCGA	0.119
ACGTCTCT	-0.108
AACACATT	-0.0538
CACTGAGA	-0.0625
ACGTGGAG	-0.0897

Series 2
Target: RNA binding protein fox-1 homolog 2, RRM domain, GST-SBP tag (RBFOX2, Homo sapiens, UniProt O43251-10, residues 100-194)
Technique: RNA Bind-n-Seq
Form: RNA
Medium: in vitro
Concentration: 365 nM
Setting: natural RNA segment, single round, ends assumed
Reference: no-protein control
Reading: higher = stronger binding
Residues (chain): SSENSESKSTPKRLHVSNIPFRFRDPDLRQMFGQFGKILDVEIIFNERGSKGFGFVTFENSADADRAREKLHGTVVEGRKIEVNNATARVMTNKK
Oligonucleotide	RBNS enrichment (R)
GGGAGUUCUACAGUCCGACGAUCUGUGAUGAAGCCUGCAGUCUGCACUGUGUUGCUGAGCACAUGGAUUUCACCACUGGAACACAGGUGUGCUGCUUGUUAGCAAGCAGAGCAAUAAAGAUGUGCUGGAUGUCUGGAAUUCUCGGGUGCCAA	0.268
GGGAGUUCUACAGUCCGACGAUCGCAAGAUGAUGAGCACAGAGUGAGACCUUUAACAGGAUGGCGGAGGGAAAGGUGUUUGCUGGAGUGACUUCCGUGCAGAGUGGUCUAUAGAGAAACUACAGCUCUGCCCAUGGAAUUCUCGGGUGCCAA	1.93
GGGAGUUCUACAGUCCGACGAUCCUUGUACAUAAAGGCUUAAUUUGUUUUCCUUGUUAGGGUCAAGGGUGUCCUCCACUCUUUAACAGCUGCUGGACAGACACAUUAGAGCAGCUGUUUGUUAUUGAUAAUAAUGGAAUUCUCGGGUGCCAA	0.586
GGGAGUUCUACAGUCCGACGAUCGAAAUCUGACUAUCUGCUAGUUGCCAAAACCCAGAAACAUUCCUGUGUAAUGGUUAGUUGGGAAAGAAGGCAGCACUUGAAAAAAUUUACCAGGUUCCUCACUGGGAGAUUGGAAUUCUCGGGUGCCAA	0.482
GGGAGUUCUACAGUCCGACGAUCUUUUUGACUCAUGGUUUAAAGGCAUCCUUUCCAUCUUGGGGAGGUCAUGGGUGCUCCUGGCAACUUGCUUGAGGAAGAUAGGUCAGAAAGCAGAGUGGACCAACCGUUCAUGGAAUUCUCGGGUGCCAA	0.829
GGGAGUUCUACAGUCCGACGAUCAUCACAUAACCUCUAGAGACCAUGCAUCUAGUUAUUGUCAGGAAUAAUUUAAAAGGUUUAGUCGCCAAAAGCAGUUAAGUGGUGCAGUAAGAUAGUUAAGUUAUUCAAAGUGGAAUUCUCGGGUGCCAA	0.753
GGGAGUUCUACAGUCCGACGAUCUUAAGAGACGGGGCAAAUGUGGAUCCAAGAAACCAGGGCCAUGACCGGGUCCACUGUGGAGCAGCCAUCUAUCUACCUGACUCCUGAGCCAGGCUGCCGUGGUGUCAUUUUGGAAUUCUCGGGUGCCAA	0.298
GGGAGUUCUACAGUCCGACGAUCAUCCCCAAGCAGCCCUACAGCCGGGAUGGGAGGCACGUGGCCUCUCUUUUAUCCGUCUAUUUAUUUUGUAAGUGUAUUCGUGUGGAGGAGGUUGUUGCUUUAUUUUUUUAUGGAAUUCUCGGGUGCCAA	0.658
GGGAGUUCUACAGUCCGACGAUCGCAAGCUCCAGGGAACCCUCUGUGCUUAUGAAGCUCGUCUGGUGGGCAACCCCAGCCCACUGGACAGAGUCCUCAUGGAAAUGCCUGGGAAGCUGAUUUCAUCUAAGGAUUGGAAUUCUCGGGUGCCAA	0.248
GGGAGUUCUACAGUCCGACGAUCGUCUACUGUGAGCUCUUUCCUUGAUUGGUUUGUGGGUUCCAUGUAUAAACAAAUGGCAAAACACAAGAGAUGGGACAAACUCAUGACAAACUGGUAUCUCUUGCUGAUGGUGGAAUUCUCGGGUGCCAA	0.584
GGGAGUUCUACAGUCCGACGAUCUAGAUCUGUGCUCUGGAGGUGGUCUGCGUGAUUAGUGUUAGUGUAUGGUUUGGUGGUCUUUAAUGUUUUGAAAAACGGAAGUGAUUAGAAGUUAAGUUACUGUUCAAAGUUGGAAUUCUCGGGUGCCAA	2.2
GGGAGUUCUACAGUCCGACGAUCGGGAGACAGGAGCCUAGCGGAGCCCAGCCUGGGAGCCCAGAGGGUGGCAAGAACAGUGGGCGUUGGGAGCCUAGCUCCUGCCACAUGGAGCCCCCUCUGCCGGUCGGGCAUGGAAUUCUCGGGUGCCAA	0.386

Series 3
Target: Interferon regulatory factor 5, full length, phosphomimetic (IRF5, Homo sapiens, UniProt Q13568-2, residues 1-514, S451D/S453D/S456D/S462D)
Technique: protein-binding microarray
Form: double-stranded DNA, one strand shown
Medium: in vitro
Concentration: 940 nM top
Setting: 60-bp whole probe
Added: salmon DNA 0.4 mg/ml
Reference: random background probes
Reading: higher = stronger binding
Constant ends, left off below: GCCTAGCAC … GTCTTGATTCGCTTGACGCTGCTG
Oligonucleotide	fitted relative affinity
TTAGGTCTGGACTTTCGGTTAGTGCTA	2.52 z-score
TCAGATTTCCATTATTGACTGTGCTAG	0.729 z-score
GACTGTATCCTTTTCCTGACGTGCTAG	0.822 z-score
GAATGTAACTCCTATCCAAGTGTGCTA	0.438 z-score
GACGGACTGCTTTTCCTCACGTGCTAG	-0.324 z-score
TCAAATTCCTGAAATCTCACTGTGCTA	0.158 z-score
TGGAGAGTAGCTTTCTGAGGGTGCTAG	-0.412 z-score
GACGATCGCAGTTTCGAGACGTGCTAG	3.13 z-score
TTAGCTTTCGACTTTCGGTTAGTGCTA	5.07 z-score
GACGGACTGCTTATCCTGTCGTGCTAG	0.199 z-score
GCAGGGCAGGCAGGCTGAGGGTGCTAG	-0.988 z-score
TTAGGTTTCGACTCTCGGTTAGTGCTA	9.4 z-score
TTCATTATTGTTTCCTCTTTGTGCTAG	1.82 z-score
TTAGGTTACCTTCTCCTTTAGTGCTAG	0.122 z-score
GACGGTTCCGGGACTGGGGACGTGCTA	0.598 z-score
GGCGGTTTCCTTTTCCTGACGTGCTAG	2.93 z-score
TCTGTTTTTGCTTTCTTTTTGTGCTAG	2.11 z-score
TTCGGTTTCGGGTATCGGTTAGTGCTA	11.1 z-score
TGAAATTTTAATAACACAGAGTGCTAG	0.0112 z-score
TTAGGTATCCTTAACCTTTAGTGCTAG	0.272 z-score

Series 4
Target: RING finger protein unkempt homolog, zinc fingers 1-6, GST-SBP tag (UNK, Homo sapiens, UniProt Q9C0B0, residues 30-357)
UniProt Q9C0B0, sequence (30-357, looked up): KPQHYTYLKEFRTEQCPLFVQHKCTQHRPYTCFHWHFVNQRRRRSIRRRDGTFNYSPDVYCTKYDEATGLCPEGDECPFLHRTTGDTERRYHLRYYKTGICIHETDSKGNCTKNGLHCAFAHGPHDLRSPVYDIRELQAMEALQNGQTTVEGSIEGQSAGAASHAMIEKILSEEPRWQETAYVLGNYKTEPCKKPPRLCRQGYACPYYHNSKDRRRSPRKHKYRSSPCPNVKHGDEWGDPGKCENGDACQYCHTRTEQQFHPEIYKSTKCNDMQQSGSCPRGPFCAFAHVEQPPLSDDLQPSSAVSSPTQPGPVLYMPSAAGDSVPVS
Technique: RNA Bind-n-Seq
Form: RNA
Medium: in vitro
Concentration: not given
Setting: RNA with constant flanks, human and mouse sites, ends assumed
Reference: input RNA pool
Reading: higher = stronger binding
Oligonucleotide	bound/input enrichment
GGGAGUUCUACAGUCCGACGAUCAGCUGGGCAGGGGGUAACUUUACUGAUUUGGGGGUGGUUUUUAGUUUAAUUUUUCUUUUCUAGCUUCCCAUCGACGGUCAGUGCGCACGUUGUAAUCAGCUGAGGCCAUGUCAGGAGACGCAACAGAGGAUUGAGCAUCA	6.73 ratio
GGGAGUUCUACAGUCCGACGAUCAGGUUCUGGCUGAUAGACUGUCGACAGAUUCAGGAGUCUGUUGCCUUUGCAUCACAAGUGUAUAGAGAAAUUAUCUGUGUGCCAUAUAUGGCCAAAUUUGUAGUGUUUGCCAAGUCACAUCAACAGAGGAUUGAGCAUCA	0.844 ratio
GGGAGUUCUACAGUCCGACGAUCAAGAUCUCCAUGGAUGUGUUUGUGAGAAAGUUCCAGCCAGAAAGGUACAAACUUUGGAAAGCUGGGAAGGACAACACAGUUAUUGACCAUACUCUGCCCACGCCAGAAGCAGCUGAGUUUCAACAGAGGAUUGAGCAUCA	0.099 ratio
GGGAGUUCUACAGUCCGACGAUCUGGCUUUGGAAUGUACAAACAGGAGAACUAAGGACAAAAAUGAGCCAGUCUCAUGAAGACAGUUUGACAAGUGUGGCUUGGAAUCCAGAUGGGAAGCGCUUUGUGACUGGAGGUCAGCGUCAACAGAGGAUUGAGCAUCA	0.272 ratio
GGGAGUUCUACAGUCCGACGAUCCGCCCAGUGAAGGCAUCAAGGGAAGAUAGUGGUUUAUUUAGUCCUAUUCGAUCCUCUGCUUUUAGUCCUCUUGGAGGCUGUACUCCAGCUGAAUGUUUUUGCCAAACAGAUAUUGGUGGACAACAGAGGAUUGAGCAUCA	1.73 ratio
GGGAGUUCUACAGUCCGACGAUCGCAGAGGAAAGUUCAGAUUGGUUUUAUGGUUUCCUCUCAUUUCUCUAUGAUAUAAUGACUCCUUUUGAAAUGCUAGAAGAAGAAGAAGAAGAAAGCGAAACCGCAGAUGGUGUUGAUGGUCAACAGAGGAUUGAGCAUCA	0.962 ratio
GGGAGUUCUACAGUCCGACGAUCUUAUGUAUCAUUGGUUUUAUAUUCUAUGUAUGUCUUUGUGGGAAAAUAUCUUAUUUAUAUGCUCAUCUAAUUUUCAUAAAAUGCCAAAGUGAAGCCUAAUAACAGUUUCAUAGAUUUACACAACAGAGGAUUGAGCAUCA	1.16 ratio
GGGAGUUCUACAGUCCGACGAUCACCCAGUUCGUGCUGCACCUGCUGGUCGGCUUUGUCUUCGUGGUGAGUGGUCUGGUCAUCAACUUCGUCCAGCUGUGCACGCUGGCGCUCUGGCCGGUCAGCAAGCAGCUCUACCGCCGCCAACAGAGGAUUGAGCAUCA	0.0692 ratio
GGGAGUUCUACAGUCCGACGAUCUGCUUGGUGCUGAUUUGUGAACCCAUUCCUCAUCCGUCAAAUAUUGAAAUUCCUUUAGAUAGCAAGACAUUUCUCAGUCGACACAGCCUCGAUAUGAAAUUUUCUUACUGUGAUGAAAGACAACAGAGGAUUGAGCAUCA	0.44 ratio
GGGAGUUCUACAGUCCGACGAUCUUUAUUUCAGGGAAAUAAUUUUCCAGUUGUUUUGCUAUAUUCUGCAAAUAAAAACCGUGUUUCCUUUUUUCACUUAAACUUUGGUAGGAAACAAACUAAAGCAGACAAACAUUUCUUGUUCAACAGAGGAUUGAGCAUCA	0.245 ratio
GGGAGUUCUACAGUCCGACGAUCAUCCAUGACCUCGCAUGCCACGCUGUCACCAUCUGCAGUCCAGAUUAUUUGCUGGAUGUUUUAGAACUAAGUAAAUACACUUUAACCGCUGUGGAGCUUUGCAGACAAUGCCAGAUGGAUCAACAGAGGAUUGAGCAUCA	0.886 ratio

Series 5
Target: Sal-like protein 4, full length isoform B (SALL4, Homo sapiens, UniProt Q9UJQ4-2, residues 1-616)
Technique: universal PBM
Form: double-stranded DNA, one strand shown
Medium: in vitro
Concentration: not given
Setting: 8-mer, flanks averaged, mean of replicates
Reading: higher = stronger binding
Target sequence (chain): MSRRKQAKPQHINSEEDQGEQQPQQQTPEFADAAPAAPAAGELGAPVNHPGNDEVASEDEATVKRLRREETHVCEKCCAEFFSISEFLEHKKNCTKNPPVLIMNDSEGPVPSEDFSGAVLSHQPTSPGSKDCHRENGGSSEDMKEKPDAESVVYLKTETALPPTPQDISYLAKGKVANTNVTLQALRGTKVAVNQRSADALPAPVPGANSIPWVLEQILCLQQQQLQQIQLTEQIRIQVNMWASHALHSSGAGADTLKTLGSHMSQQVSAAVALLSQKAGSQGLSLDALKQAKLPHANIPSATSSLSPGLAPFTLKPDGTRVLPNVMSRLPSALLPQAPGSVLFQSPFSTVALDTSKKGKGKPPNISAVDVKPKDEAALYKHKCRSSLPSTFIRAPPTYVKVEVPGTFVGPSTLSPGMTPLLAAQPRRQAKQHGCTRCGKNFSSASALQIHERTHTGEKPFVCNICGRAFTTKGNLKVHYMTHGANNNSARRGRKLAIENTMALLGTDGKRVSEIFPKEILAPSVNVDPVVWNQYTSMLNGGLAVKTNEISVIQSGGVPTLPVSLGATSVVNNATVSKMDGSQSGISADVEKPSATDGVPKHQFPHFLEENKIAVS
Oligonucleotide	E-score
CCCATGGC	-0.345
AAAGCATG	0.0958
TAACCACA	0.132
ATAGCTCA	0.0629
GAGGGACA	-0.215
CCATAGAG	-0.0544
ATGGGTAA	0.164
TCGTCGCA	-0.222
ATGGTACA	0.123
ACTGCTAA	0.0108
CTCAGTTA	-0.00521
ATAGAGGC	-0.0158
CGCTATGC	-0.204
GATGTGAC	-0.0693
CCGCGAAA	-0.158
CACATGCC	0.0697
ACTAGTTG	-0.0338
CTAGTGAG	-0.0614
GTTCAACA	0.111
AAAGTGGG	-0.0524
AAGGTCAA	0.0643
CTTTATCC	0.0101
AGACGTCG	-0.0754

Excerpt of the above (series 5):
Oligonucleotide	E-score
ATAGCTCA	0.0629
GAGGGACA	-0.215
CCATAGAG	-0.0544
ATGGGTAA	0.164
TCGTCGCA	-0.222
ATGGTACA	0.123
ACTGCTAA	0.0108
CTCAGTTA	-0.00521
ATAGAGGC	-0.0158
CGCTATGC	-0.204
GATGTGAC	-0.0693
